Results gathered from unrelated publications.
± gives the spread as reported.
Cell line: HepG2

Cc1cccc(CNC(=O)/C(=C/c2ccc(F)cc2)NC(=O)c2ccccc2)c1  IC50 (concentration not given): 34.6 ± 1.16 µM
O=C(CN1CCN(c2nc3ccccc3nc2Cl)CC1)Nc1ccc([N+](=O)[O-])cc1  IC50 (cell growth or viability, MTT; 24 h): 11.4 µM
O=[N+]([O-])c1ccc(-n2nc(-c3cccs3)sc2=NN=C2CCCC2)cc1  IC50 (cell growth or viability): 70.1 µM
N#Cc1c(-c2ccc(Cl)cc2)c2c(=O)[nH]c(-c3ccco3)nc2n(C2CCCCC2)c1=O  IC50 (cell growth or viability, MTT): 13.4 µM
CC(=O)OCC(CSc1nc2c3cnn(C(=O)CNc4ccc(C)cc4)c3ncn2n1)OC(C)=O (centres unmarked)  IC50 (cell growth or viability, MTT; 48 h): 0.09 µM
CCCCCCSc1nnc(-c2ccc(-c3cc(OC)c(OC)c(OC)c3)nc2C)o1  IC50 (cell growth or viability, MTT): 12.7 µM
O=C(/C=C/c1ccc(O)cc1)CC(=O)/C=C/c1ccc(O)cc1  IC50 (cell growth or viability, MTT; 48 h): 19.5 µg/mL
CCCCNC(=O)c1ccc(NC(=O)Cn2c(=O)c(C)nc3ccccc32)cc1  IC50 (cell growth or viability, MTT): 24.5 µM
O=C(Nc1ccc(Cl)cc1)/C(=C/c1ccc(F)cc1)NC(=O)c1ccccc1  IC50 (concentration not given): 18.1 ± 0.96 µM
Cc1c(C(=O)/C=C/c2cc3ccccc3o2)nnn1-c1c(Cl)cc(Cl)cc1Cl  IC50 (cell growth or viability, MTT): 9.7 µM
O=C(CN1CCN(c2nc3ccccc3[nH]c2=O)CC1)NCc1ccccc1  IC50 (cell growth or viability, MTT; 24 h): 12.7 µM
COc1ccc(/C=N/NC(=O)c2ccc(-c3cc(OC)c(OC)c(OC)c3)nc2C)cc1OC  IC50 (cell growth or viability, MTT): 5.87 µM
CCOC(=O)c1nc2c(c(-c3ccc(Cl)cc3)c(C#N)c(=O)n2C2CCCCC2)c(=O)[nH]1  IC50 (cell growth or viability, MTT): ≥ 50 µM
O=C(CN1CCN(c2nc3ccccc3[nH]c2=O)CC1)Nc1ccc(Cl)cc1  IC50 (cell growth or viability, MTT; 24 h): 10.4 µM
CCOc1ccc(/C=N/NC(=O)c2ccc(-c3cc(OC)c(OC)c(OC)c3)nc2C)cc1  IC50 (cell growth or viability, MTT): 36.3 µM
COc1ccc(-c2cc(-c3ccc4ccccc4c3)c3c(=O)[nH]c(=O)[nH]c3n2)cc1  IC50 (cell growth or viability, MTT; 48 h): < 5 µM
CC(=O)c1ccc(NC(=O)CN2CCN(c3nc4ccccc4nc3Cl)CC2)cc1  IC50 (cell growth or viability, MTT; 24 h): 12.5 µM
Cc1nn(C)cc1S(=O)(=O)NC(=O)c1ccc(-n2ccc(OCC(C)(C)C(F)(F)F)n2)nc1N1C[C@@H](C)CC1(C)C  IC50 (oxygen consumption rate, inhibitor, Seahorse Mito Stress Test; 1 h; reference: DMSO 0.2%): 21.7 µM
N#Cc1c(-c2ccc(Cl)cc2)c2c(=O)[nH]nnc2n(C2CCCCC2)c1=O  IC50 (cell growth or viability, MTT): 0.99 µM
CNC(=O)c1cc(Oc2ccc(NC(=O)Nc3ccc(Cl)c(C(F)(F)F)c3)cc2)ccn1  IC50 (cell growth or viability, MTT; 48 h): 0.019 µM
COc1cc(-c2cc(-c3ccc(Cl)cc3)[nH]c(=O)c2C#N)ccc1O  IC50 (cell growth or viability, MTT): 7.38 µM
O=C1CSC(=S)N1CN1CCCCC1  IC50 (cell growth or viability, MTT; 48 h): 45.9 µM
CC(=O)c1ccc(NC(=O)CN2CCN(c3nc4ccccc4[nH]c3=O)CC2)cc1  IC50 (cell viability, MTT; 24 h): 8.85 µM
CC(=O)OCCSc1nc2c3cnn(C(=O)CNc4ccc(C)cc4)c3ncn2n1  IC50 (cell growth or viability, MTT; 48 h): 0.088 µM
COc1cc(-c2ccc(C(=O)N/N=C/c3ccc(O)cc3)c(C)n2)cc(OC)c1OC  IC50 (cell growth or viability, MTT): 15.4 µM
Cc1c(C(=O)/C=C/c2cc3ccccc3s2)nnn1-c1c(Cl)cc(Cl)cc1Cl  IC50 (cell viability, MTT): 9.7 to 15.6 µM
COc1cc(-c2ccc(C(=O)N/N=C/c3cc(Cl)ccc3Cl)c(C)n2)cc(OC)c1OC  IC50 (cell growth or viability, MTT): 13.1 µM
Cc1nc2ccccc2nc1SCC(=O)Nc1ccc(C(=O)Nc2ccc([N+](=O)[O-])cc2O)cc1  IC50 (cell growth or viability, MTT): 42.8 µM
COc1cc(-c2ccc(C(=O)N/N=C/c3ccc([N+](=O)[O-])cc3)c(C)n2)cc(OC)c1OC  IC50 (cell growth or viability, MTT): 3.74 µM
Cc1ccc(NC(=O)/C(=C/c2ccc(F)cc2)NC(=O)c2ccccc2)cc1  IC50 (concentration not given): 15.9 ± 0.92 µM
O=C(CN1CCN(c2nc3ccccc3[nH]c2=O)CC1)Nc1ccc([N+](=O)[O-])cc1  IC50 (cell growth or viability, MTT; 24 h): 12.6 µM
CCSc1nnc(-c2ccc(-c3cc(OC)c(OC)c(OC)c3)nc2C)o1  IC50 (cell growth or viability, MTT): 8.57 µM
CCCCCCCC[N+](CCCCCCCC)(CCCCCCCC)CCCCCCCC  IC50 (LDH release; 5 h): 28.1 µM
COc1cc(-c2cc(-c3ccc(Cl)cc3)n(CN(C)C)c(=O)c2C#N)ccc1O  IC50 (cell growth or viability, MTT): 3.47 µM
Cc1ccc(/C=N/NC(=O)/C(=C/c2ccc(F)cc2)NC(=O)c2ccccc2)cc1  IC50 (concentration not given): 31.6 ± 1.57 µM
Cc1ccc(NCC(=O)n2ncc3c(=N)n(N[C@@H]4O[C@H](CO)[C@@H](O)[C@H](O)[C@H]4O)cnc32)cc1  IC50 (cell growth or viability, MTT; 48 h): 0.695 µM
O=C(CN1CCN(c2nc3ccccc3nc2Cl)CC1)NCc1ccccc1  IC50 (cell growth or viability, MTT; 24 h): 9.52 µM
O=[N+]([O-])c1ccc(-n2nc(-c3cccs3)sc2=NN=Cc2cn(-c3ccccc3)nc2-c2ccccc2)cc1  IC50 (cell growth or viability): 35.9 µM
O=C1/C(=C/c2ccc(F)cc2)N=C(c2ccccc2)N1c1ccc(S(=O)(=O)Nc2ncccn2)cc1  IC50 (concentration not given): 4.23 ± 0.17 µM
Cc1nc2ccccc2n(CC(=O)Nc2ccc(C(=O)Nc3cccc(Cl)c3)cc2)c1=O  IC50 (cell growth, MTT): 2.8 µM
O=C(Nc1ccc(O)cc1)/C(=C/c1ccc(F)cc1)NC(=O)c1ccccc1  IC50 (concentration not given): 7.81 ± 0.34 µM
Cc1nc2ccccc2nc1SCC(=O)Nc1ccc(C(=O)NNC(=O)c2ccccc2O)cc1  IC50 (cell growth or viability, MTT): 27.1 µM
O=C(CN1CCN(c2nc3ccccc3[nH]c2=O)CC1)Nc1ccccc1  IC50 (cell growth or viability, MTT; 24 h): 11.5 µM
O=C(N/N=C/c1ccc(F)cc1)/C(=C/c1ccc(F)cc1)NC(=O)c1ccccc1  IC50 (concentration not given): 38.1 ± 1.88 µM
CCOC(=O)Cn1c(-c2ccc(Cl)cc2)cc(-c2ccc(O)c(OC)c2)c(C#N)c1=O  IC50 (cell growth or viability, MTT): 2.19 µM
COc1ccc(-c2cc(-c3ccc(N(C)C)cc3)c3c(=O)n(C)c(=O)n(C)c3n2)cc1  IC50 (cell growth or viability, MTT; 48 h): < 5 µM
CC(C)(C)c1cc(C(C)(C)C)c(NC(=O)c2c[nH]c3ccccc3c2=O)cc1O  IC50 (oxygen consumption rate, inhibitor, Seahorse Mito Stress Test; 1 h; reference: DMSO 0.2%): 10.3 µM
N#Cc1c(-c2ccc(Cl)cc2)c2c(=O)[nH]c(CCl)nc2n(C2CCCCC2)c1=O  IC50 (cell growth or viability, MTT): 2.1 µM
COC(CSc1nc2c3cnn(C(=O)CNc4ccc(C)cc4)c3ncn2n1)OC  IC50 (cell growth or viability, MTT; 48 h): 0.074 µM
COc1cc(OC)c(/C=N/NC(=O)c2ccc(-c3cc(OC)c(OC)c(OC)c3)nc2C)c(OC)c1  IC50 (cell growth or viability, MTT): 12.5 µM
CN1CCN(c2nc3cc(C(F)(F)F)ccc3n3cccc23)CC1  IC50 (cell viability, ATP content; 24 h): 45.7 ± 14.6 µM
O=C1Nc2ccccc2C1=NN=c1sc(-c2cccs2)nn1-c1ccc([N+](=O)[O-])cc1  IC50 (cell growth or viability): 22.4 µM
CSc1ccc2c(c1)C(N1CCN(C)CC1)Cc1ccccc1S2 (centres unmarked)  IC50 (cell viability, ATP content; 24 h): 63.2 ± 10.3 µM
COc1cccc(CNC(=O)/C(=C/c2ccc(F)cc2)NC(=O)c2ccccc2)c1  IC50 (concentration not given): 41.3 ± 1.52 µM
CNC(=O)c1cc(Oc2ccc(NC(=O)Nc3ccc(Cl)c(C(F)(F)F)c3)cc2)ccn1  IC50 (cell proliferation, MTT; 48 h, miR-140-3p plus mutant PXR): 1.74 ± 0.47 µM
O=[N+]([O-])c1ccc(-n2nc(-c3cccs3)sc2=NN=C2CCCc3ccccc32)cc1  IC50 (cell growth or viability): 68.9 µM

Excerpt of the above:
O=C(CN1CCN(c2nc3ccccc3[nH]c2=O)CC1)Nc1ccc([N+](=O)[O-])cc1  IC50 (cell growth or viability, MTT; 24 h): 12.6 µM
Cc1cccc(CNC(=O)/C(=C/c2ccc(F)cc2)NC(=O)c2ccccc2)c1  IC50 (concentration not given): 34.6 ± 1.16 µM
Cc1c(C(=O)/C=C/c2cc3ccccc3s2)nnn1-c1c(Cl)cc(Cl)cc1Cl  IC50 (cell viability, MTT): 9.7 to 15.6 µM
Cc1nc2ccccc2n(CC(=O)Nc2ccc(C(=O)Nc3cccc(Cl)c3)cc2)c1=O  IC50 (cell growth, MTT): 2.8 µM
O=C(CN1CCN(c2nc3ccccc3[nH]c2=O)CC1)Nc1ccc(Cl)cc1  IC50 (cell growth or viability, MTT; 24 h): 10.4 µM
COc1cc(-c2ccc(C(=O)N/N=C/c3cc(Cl)ccc3Cl)c(C)n2)cc(OC)c1OC  IC50 (cell growth or viability, MTT): 13.1 µM
CNC(=O)c1cc(Oc2ccc(NC(=O)Nc3ccc(Cl)c(C(F)(F)F)c3)cc2)ccn1  IC50 (cell growth or viability, MTT; 48 h): 0.019 µM
